Results of several laboratories.
Each line is one published result; not all experiments were run side by side.
Cell line: NCI-H1975

CCN1CCN(c2ccc(Nc3ncc(C)c(Nc4ccc5cn[nH]c5c4)n3)cc2OC)CC1  apoptotic cells (annexin V-FITC/PI flow cytometry; 3 µM, 24 h): 46.9%
CC(C)Oc1ccc(S(=O)(=O)c2ccc(Oc3ccc(C(=O)C(Cl)Cl)cc3[N+](=O)[O-])cc2)cc1  IC50 (cell growth or viability, MTT; 72 h): 330 to 880 nM
COc1cc(N(C)CCN(C)C)c(NC(=O)/C=C/c2ccc3c(c2)OCO3)cc1Nc1nccc(-c2cn(C)c3ccccc23)n1  IC50 (cell growth or viability, MTT; 72 h): 105 nM
CN1CCN(c2ccc(C(=O)Nc3n[nH]c4ccc(Cc5cc(F)cc(F)c5)cc34)c(NC3CCOCC3)c2)CC1  IC50 (cell growth or viability, MTT; 72 h): 1550 nM
CC[C@H](C(=O)N1CCCC[C@H]1C(=O)O[C@H](CCc1ccc(OC)c(OC)c1)c1cccc(OCC(=O)NCCOCCOCCN(C)C/C=C/C(=O)Nc2cc3c(Nc4ccc(F)c(Cl)c4)ncnc3cc2OC)c1)c1cc(OC)c(OC)c(OC)c1  apoptotic and dead cells (annexin V/PI flow cytometry; 1 µM, 48 h, DMSO 3.5%): 42.9%
CCOC(=O)COc1cc(Oc2ccc(S(=O)(=O)c3ccc(OC(C)C)cc3)cc2)c([N+](=O)[O-])cc1C(=O)C(Cl)Cl  inhibition (cell growth or viability, MTT; 2.5 µM): > 95%
C=CC(=O)Nc1cc(Nc2nccc(-n3ccc4nc(OC)ccc43)n2)c(OC)cc1N(C)CCN(C)C  IC50 (cell growth or viability, ATP luminescence; 72 h): 1 nM
COc1cc(N(C)CCN(C)C)c(NC(=O)/C=C/c2ccc3nc(C)ccc3c2)cc1Nc1nccc(-c2cn(C)c3ccccc23)n1  IC50 (cell growth or viability, MTT; 72 h): 400 nM
O=C(NCCN1CCOCC1)c1cc2c3ccccc3n3c(=O)ccc(n1)c23  IC50 (cell growth or viability, MTT; 72 h): 1300 nM
O=C(NN=Cc1ccc(O)cc1)Nc1cc2c(Nc3ccc(F)c(Cl)c3)ncnc2cc1OC1CCOC1 (stereo not drawn)  IC50 (cell growth or viability, MTT; 72 h): > 100000 nM
CCOC(=O)/C(=N\Nc1ccc(S(=O)(=O)Nc2ncccn2)cc1)C(=O)c1ccccc1  IC50 (cell growth or viability, MTT; 48 h): 10300 nM
COc1cc(N(C)CCN(C)C)c(NC(=O)/C=C/c2cc(F)cc(Cl)c2)cc1Nc1nccc(-c2cn(C)c3ccccc23)n1  IC50 (cell growth or viability, MTT; 72 h): 255 nM
COc1cc2ncnc(Nc3ccc(F)c(Cl)c3)c2cc1NC(=O)/C=C/CN(C)C  IC50 (cell growth or viability, SRB; 72 h): 300 to 400 nM
COc1cc(N(C)CCN(C)C)c(NC(=O)/C=C/c2ccc3c(c2)OCCO3)cc1Nc1nccc(-c2cn(C)c3ccccc23)n1  IC50 (cell growth or viability, MTT; 72 h): 121 nM
CCN1CCN(Cc2ccc(C(=O)Nc3ccc(C)c(NCc4cnc5[nH]ccc5c4OC)c3)cc2C(F)(F)F)CC1  GI50 (cell growth or viability; 48 h): 890 nM

For quick reference, copied from above:
COc1cc(N(C)CCN(C)C)c(NC(=O)/C=C/c2ccc3c(c2)OCCO3)cc1Nc1nccc(-c2cn(C)c3ccccc23)n1  IC50 (cell growth or viability, MTT; 72 h): 121 nM
